Experimental data of several laboratories.
Parts stem from different laboratories: compare values within a part only.

Sample 1
Target: Interferon regulatory factor 5, full length, phosphomimetic (IRF5, Homo sapiens, UniProt Q13568-2, residues 1-514, K96S/S451D/S453D/S456D/S462D)
Technique: protein-binding microarray
Molecule type: double-stranded DNA, one strand shown
Sample: in vitro
Tested at: 250 nM
Notes: 60-bp whole probe
Added: salmon DNA 0.4 mg/ml
Reference: random background probes
Reading: higher = stronger binding
Constant ends, left off below: GCCTAGCAC … GTCTTGATTCGCTTGACGCTGCTG
Strand	log fluorescence [z-score]
TTAGATCACAGTTTCGATTAGTGCTAG	9.22
TCACTCCTCTAGGTTCTCACTGTGCTA	0.221
GACGGTCTCGATCTCGGGACGTGCTAG	-0.0831
TCACCTCTAGGTCTTCTACTGTGCTAG	-0.196
TTAGATTCCAGTTTTGATTAGTGCTAG	1.53
GACGGTTTCCTTATCCTGATGTGCTAG	0.95
ATGGAAATGCACCCCACGCTGTGCTAG	-0.444
TTAGTTATCGGGACTGGATTAGTGCTA	1.77

Sample 2
Target: Prothrombin, mature alpha-thrombin (F2, Homo sapiens, UniProt P00734)
Technique: aptamer microarray, sandwich
Molecule type: DNA with 2'F-ANA
Sample: in vitro
Tested at: 200 nM
Notes: whole 15-mer aptamer, many near background
Added: Cy3 exosite-II aptamer, 400 nM
Reading: higher = stronger binding
Strand: GGTTGGTGTGGTTGG
Modification	mean fluorescence intensity [a.u.]
2'F-ANA at 1 6 7 10 12	72.1
2'F-ANA at 1 2 10 11 15	69.3
2'F-ANA at 1 2 5 7 8 9 12 13 14	45.5
2'F-ANA at 2 6 8 15	404
2'F-ANA at 1 3 6 9 10 12 14	63.3
2'F-ANA at 3 4 6 7 9 10 15	256
2'F-ANA at 3 6 7 8 10 12 13 14 15	379
2'F-ANA at 1 4 8 9 11 13 14	50.1
2'F-ANA at 4 11 12 13	378
2'F-ANA at 1 2 3 4 5 6 7 8 11 12 13 14	49.7
2'F-ANA at 3 6 7 8 12 13 14 15	663

Sample 3
Target: Sal-like protein 4, full length isoform B (SALL4, Homo sapiens, UniProt Q9UJQ4-2, residues 1-616)
Technique: universal PBM
Molecule type: double-stranded DNA, one strand shown
Sample: in vitro
Tested at: not given
Notes: 8-mer, flanks averaged, mean of replicates
Reading: higher = stronger binding
Target sequence (chain): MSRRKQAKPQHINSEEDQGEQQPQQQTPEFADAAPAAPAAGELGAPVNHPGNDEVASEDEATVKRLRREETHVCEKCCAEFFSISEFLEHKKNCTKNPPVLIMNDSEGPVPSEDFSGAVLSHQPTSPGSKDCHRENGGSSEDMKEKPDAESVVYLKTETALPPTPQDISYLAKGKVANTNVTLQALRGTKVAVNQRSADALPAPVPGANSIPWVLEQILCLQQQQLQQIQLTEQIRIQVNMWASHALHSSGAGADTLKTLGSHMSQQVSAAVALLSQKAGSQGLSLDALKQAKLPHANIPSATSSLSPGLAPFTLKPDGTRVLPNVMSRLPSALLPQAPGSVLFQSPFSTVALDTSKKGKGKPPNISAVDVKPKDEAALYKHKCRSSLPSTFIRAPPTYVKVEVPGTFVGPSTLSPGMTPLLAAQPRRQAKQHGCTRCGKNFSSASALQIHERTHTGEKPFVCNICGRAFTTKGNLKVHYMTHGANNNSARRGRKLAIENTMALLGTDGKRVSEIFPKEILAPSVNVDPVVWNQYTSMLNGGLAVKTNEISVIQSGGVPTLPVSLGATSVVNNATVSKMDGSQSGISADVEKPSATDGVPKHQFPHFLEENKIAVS
Strand	E-score
GCAGTAAA	0.0358
GACTTGCA	0.103
TCGATCGA	-0.0651
AAGTGCAG	-0.0278
ACAAATTG	0.131
AGATGAAT	0.164
CAGTTGAC	-0.12
AAATGAAA	0.318

Single results of other studies
Substance	target	test	system	conditions	scale	endpoint	result
PhoQ, residues 284 288 289 292 302 303 QWQEDG	PhoP, residues 12 14 15 18 19 STHWV (Escherichia coli, UniProt P23836)	Sort-seq, measured: YFP reporter	E. coli	PhoQ-PhoP variant library, added: 10 µM Mg2+	reference: high Mg2+ state, higher = stronger signaling	fold induction	16.2

Repeated from above (sample 2):
Modification	mean fluorescence intensity [a.u.]
2'F-ANA at 1 2 5 7 8 9 12 13 14	45.5
2'F-ANA at 1 2 10 11 15	69.3
2'F-ANA at 2 6 8 15	404
2'F-ANA at 1 2 3 4 5 6 7 8 11 12 13 14	49.7
